{"data": "Experimental data collected from several papers", "organism": "Staphylococcus aureus", "note": "Each line is one published result; not all experiments were run side by side. ± gives the spread as reported."}
{"SMILES": "CC(=O)[O-].O.O.O.O.[Mn+2].[O-]c1ccc(Br)cc1C=NCCN1CCOCC1", "dose": "20 µL of 100 µM per disc", "inhibition zone diameter [mm]": 13}
{"SMILES": "CCOC(=O)C1=C(C)NC2=C(C(=O)CC(C)(C)C2)C1c1ccc(OCC(=O)NN=Cc2cccc([N+](=O)[O-])c2)cc1OCC(=O)NN=Cc1cccc([N+](=O)[O-])c1 (stereo not shown)", "strain": "6538P", "tested at": "concentration not given", "time": "24 h", "temperature": "37 °C", "inhibition zone diameter [mm]": "7.3 ± 0.3"}
{"SMILES": "Cn1c(C23CC4CC(CC(C4)C2)C3)nn(CCN2CCCCC2)c1=S", "strain": "IFO 3060", "dose": "200 µg/disc", "time": "24 h", "temperature": "37 °C", "inhibition zone diameter [mm]": 23}
{"SMILES": "Cc1ncc([N+](=O)[O-])n1CCOCc1nnc(SCC(=O)c2ccc(O)cc2)o1", "sample": "DMSO", "tested at": "60 µg/mL", "time": "24 h", "temperature": "37 °C", "inhibition zone diameter [mm]": "10 to 15"}
{"SMILES": "Cc1cc(O)c2c(c1)C(=O)c1cc3oc(=O)cc(-c4ccccc4)c3c(O)c1C2=O", "strain": "MTCC 96", "dose": "100 µg/disc", "inhibition zone diameter [mm]": 8}
{"SMILES": "CC(=NNC(=N)N)c1nnn(-c2ccc(C#CC3(O)CCCCC3)cc2)c1C", "strain": "ATCC 43300 MRSA", "tested at": "concentration not given", "inhibition zone diameter [mm]": "33.3 ± 0.47"}
{"SMILES": "CCN(CC)CCSc1nnc(C23CC4CC(CC(C4)C2)C3)n1C", "strain": "IFO 3060", "dose": "200 µg/disc", "time": "24 h", "temperature": "37 °C", "inhibition zone diameter [mm]": 14}
{"SMILES": "Cc1ncc([N+](=O)[O-])n1CCOCc1nnc(SCC(=O)c2ccc(F)cc2)o1", "sample": "DMSO", "tested at": "60 µg/mL", "time": "24 h", "temperature": "37 °C", "inhibition zone diameter [mm]": "15 to 20"}
{"SMILES": "Cc1cc(O)cc2c1C(=O)c1c(cc3oc(=O)cc(-c4ccccc4)c3c1O)C2=O", "strain": "MTCC 96", "dose": "100 µg/disc", "inhibition zone diameter [mm]": 8}
{"SMILES": "CN(C)CCn1nc(C23CC4CC(CC(C4)C2)C3)n(C)c1=S", "strain": "IFO 3060", "dose": "200 µg/disc", "time": "24 h", "temperature": "37 °C", "inhibition zone diameter [mm]": 16}
{"SMILES": "COc1ccc(C(=O)CSc2nnc(COCCn3c([N+](=O)[O-])cnc3C)o2)cc1F", "sample": "DMSO", "tested at": "60 µg/mL", "time": "24 h", "temperature": "37 °C", "inhibition zone diameter [mm]": "≥ 20"}
{"SMILES": "Clc1ccc(CSc2nnc(C34CC5CC(CC(C5)C3)C4)n2-c2ccccc2)cc1", "strain": "IFO 3060", "dose": "200 µg/disc", "time": "24 h", "temperature": "37 °C", "inhibition zone diameter [mm]": 19}
{"SMILES": "CO[C@H]1O[C@H](COC(c2ccccc2)(c2ccccc2)c2ccccc2)[C@@H](OS(=O)(=O)c2ccccc2)[C@H](OS(=O)(=O)c2ccccc2)[C@H]1OS(=O)(=O)c1ccccc1", "tested at": "concentration not given", "inhibition zone diameter [mm]": "15 ± 0.3"}
{"note": "Excerpt of the above:"}
{"SMILES": "Cc1ncc([N+](=O)[O-])n1CCOCc1nnc(SCC(=O)c2ccc(F)cc2)o1", "sample": "DMSO", "tested at": "60 µg/mL", "time": "24 h", "temperature": "37 °C", "inhibition zone diameter [mm]": "15 to 20"}
